Measured values gathered from unrelated publications.
Each line is one published result; not all experiments were run side by side. Numbers after ± are the reported error.
RET: Proto-oncogene tyrosine-protein kinase receptor Ret (RET, Homo sapiens, UniProt P07949)
UniProt P07949, sequence (whole entry, looked up): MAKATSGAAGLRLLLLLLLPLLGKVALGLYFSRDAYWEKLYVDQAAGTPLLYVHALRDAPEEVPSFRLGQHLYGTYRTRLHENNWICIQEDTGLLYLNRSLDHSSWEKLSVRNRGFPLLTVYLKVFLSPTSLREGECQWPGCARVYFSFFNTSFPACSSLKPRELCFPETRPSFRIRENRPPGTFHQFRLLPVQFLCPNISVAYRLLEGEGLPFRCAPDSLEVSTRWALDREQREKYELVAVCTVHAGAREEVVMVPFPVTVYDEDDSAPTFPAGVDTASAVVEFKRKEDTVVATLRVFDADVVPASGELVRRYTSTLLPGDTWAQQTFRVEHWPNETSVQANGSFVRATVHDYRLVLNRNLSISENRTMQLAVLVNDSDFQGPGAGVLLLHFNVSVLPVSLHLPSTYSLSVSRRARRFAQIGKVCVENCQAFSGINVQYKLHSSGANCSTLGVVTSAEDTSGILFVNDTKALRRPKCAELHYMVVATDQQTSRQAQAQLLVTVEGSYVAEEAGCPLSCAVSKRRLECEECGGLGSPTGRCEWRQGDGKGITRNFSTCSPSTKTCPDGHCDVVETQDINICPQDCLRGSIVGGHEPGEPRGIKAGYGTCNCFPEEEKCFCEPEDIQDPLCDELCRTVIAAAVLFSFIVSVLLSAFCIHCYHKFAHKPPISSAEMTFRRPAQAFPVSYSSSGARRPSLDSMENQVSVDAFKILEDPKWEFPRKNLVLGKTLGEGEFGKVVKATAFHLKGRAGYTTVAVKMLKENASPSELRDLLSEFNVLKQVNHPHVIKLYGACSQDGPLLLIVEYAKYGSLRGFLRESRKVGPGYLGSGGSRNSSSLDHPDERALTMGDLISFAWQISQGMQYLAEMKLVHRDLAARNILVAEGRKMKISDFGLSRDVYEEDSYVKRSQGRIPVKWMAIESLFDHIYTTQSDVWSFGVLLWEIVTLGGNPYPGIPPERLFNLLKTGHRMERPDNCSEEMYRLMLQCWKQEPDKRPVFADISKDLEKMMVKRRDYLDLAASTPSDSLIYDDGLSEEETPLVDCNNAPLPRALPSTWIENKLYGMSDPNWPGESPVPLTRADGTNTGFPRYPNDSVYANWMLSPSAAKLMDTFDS
SLCO1B1: Solute carrier organic anion transporter family member 1B1 (SLCO1B1, Homo sapiens, UniProt Q9Y6L6)
UniProt Q9Y6L6, sequence (whole entry, looked up): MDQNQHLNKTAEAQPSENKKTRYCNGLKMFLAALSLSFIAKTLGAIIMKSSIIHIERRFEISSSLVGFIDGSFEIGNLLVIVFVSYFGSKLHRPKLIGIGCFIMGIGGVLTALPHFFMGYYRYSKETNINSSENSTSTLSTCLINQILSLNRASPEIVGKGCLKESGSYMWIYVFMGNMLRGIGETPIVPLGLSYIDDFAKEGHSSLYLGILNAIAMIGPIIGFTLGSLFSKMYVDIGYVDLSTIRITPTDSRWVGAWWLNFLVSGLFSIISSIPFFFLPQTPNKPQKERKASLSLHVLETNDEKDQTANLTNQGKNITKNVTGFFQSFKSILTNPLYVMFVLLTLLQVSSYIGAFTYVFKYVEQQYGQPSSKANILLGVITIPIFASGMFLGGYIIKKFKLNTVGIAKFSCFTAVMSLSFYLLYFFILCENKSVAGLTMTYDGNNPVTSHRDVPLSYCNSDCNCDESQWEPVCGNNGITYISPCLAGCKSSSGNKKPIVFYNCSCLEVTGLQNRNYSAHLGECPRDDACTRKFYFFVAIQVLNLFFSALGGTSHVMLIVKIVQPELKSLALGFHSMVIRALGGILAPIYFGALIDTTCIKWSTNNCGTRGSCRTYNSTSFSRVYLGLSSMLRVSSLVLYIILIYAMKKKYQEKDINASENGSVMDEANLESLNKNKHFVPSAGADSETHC
PSMB5: Proteasome Macropain subunit MB1 (PSMB5, Homo sapiens, UniProt P28074)
UniProt P28074, sequence (whole entry, looked up): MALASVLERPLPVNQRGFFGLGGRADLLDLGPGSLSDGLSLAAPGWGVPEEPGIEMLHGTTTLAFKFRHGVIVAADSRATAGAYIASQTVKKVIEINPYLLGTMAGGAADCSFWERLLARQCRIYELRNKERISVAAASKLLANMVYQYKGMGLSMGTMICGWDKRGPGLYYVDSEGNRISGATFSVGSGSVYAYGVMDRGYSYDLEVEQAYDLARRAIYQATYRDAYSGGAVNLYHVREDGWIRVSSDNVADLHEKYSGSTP
Proteasome component C5/PSMB5: Proteasome component C5/PSMB5 (Homo sapiens, UniProt P20618+P28074)
UniProt P20618, sequence (whole entry, looked up): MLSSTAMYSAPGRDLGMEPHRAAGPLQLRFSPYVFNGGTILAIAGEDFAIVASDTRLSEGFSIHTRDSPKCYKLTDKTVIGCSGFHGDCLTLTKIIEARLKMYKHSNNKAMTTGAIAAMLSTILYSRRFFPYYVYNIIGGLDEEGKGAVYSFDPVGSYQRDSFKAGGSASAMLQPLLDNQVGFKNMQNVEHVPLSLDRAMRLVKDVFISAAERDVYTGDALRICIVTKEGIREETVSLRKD
Protein AF-9 with DOT1L: Protein AF-9, with DOT1L (Homo sapiens, UniProt P42568)
UniProt P42568, sequence (whole entry, looked up): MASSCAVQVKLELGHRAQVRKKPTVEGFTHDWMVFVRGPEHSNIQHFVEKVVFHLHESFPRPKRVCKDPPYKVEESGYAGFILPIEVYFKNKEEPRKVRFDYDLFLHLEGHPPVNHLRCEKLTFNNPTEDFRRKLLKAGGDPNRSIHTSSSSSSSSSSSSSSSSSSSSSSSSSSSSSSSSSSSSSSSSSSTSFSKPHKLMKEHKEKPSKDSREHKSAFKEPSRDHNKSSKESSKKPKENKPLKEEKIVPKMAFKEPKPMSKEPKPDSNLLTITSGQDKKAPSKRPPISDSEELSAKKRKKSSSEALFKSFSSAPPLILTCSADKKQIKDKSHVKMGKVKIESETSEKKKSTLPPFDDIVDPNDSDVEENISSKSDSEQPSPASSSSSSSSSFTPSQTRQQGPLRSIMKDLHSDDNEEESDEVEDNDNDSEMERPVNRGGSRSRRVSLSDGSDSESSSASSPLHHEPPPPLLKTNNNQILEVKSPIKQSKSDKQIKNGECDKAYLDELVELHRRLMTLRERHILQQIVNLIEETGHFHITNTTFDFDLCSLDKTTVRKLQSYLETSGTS
CSNK1D: Casein kinase I isoform delta (CSNK1D, Homo sapiens, UniProt P48730)
UniProt P48730, sequence (whole entry, looked up): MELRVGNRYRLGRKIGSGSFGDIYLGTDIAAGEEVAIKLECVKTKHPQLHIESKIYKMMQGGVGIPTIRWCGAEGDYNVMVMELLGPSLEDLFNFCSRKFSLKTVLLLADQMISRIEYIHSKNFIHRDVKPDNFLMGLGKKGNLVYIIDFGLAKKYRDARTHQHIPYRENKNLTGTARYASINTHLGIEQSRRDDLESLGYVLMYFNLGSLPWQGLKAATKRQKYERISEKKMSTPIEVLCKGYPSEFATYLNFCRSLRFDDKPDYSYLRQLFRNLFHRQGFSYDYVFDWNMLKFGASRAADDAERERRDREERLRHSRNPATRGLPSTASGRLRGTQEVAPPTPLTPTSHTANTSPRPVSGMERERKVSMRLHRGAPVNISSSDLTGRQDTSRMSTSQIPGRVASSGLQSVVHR
UniProt P00747, sequence (whole entry, looked up): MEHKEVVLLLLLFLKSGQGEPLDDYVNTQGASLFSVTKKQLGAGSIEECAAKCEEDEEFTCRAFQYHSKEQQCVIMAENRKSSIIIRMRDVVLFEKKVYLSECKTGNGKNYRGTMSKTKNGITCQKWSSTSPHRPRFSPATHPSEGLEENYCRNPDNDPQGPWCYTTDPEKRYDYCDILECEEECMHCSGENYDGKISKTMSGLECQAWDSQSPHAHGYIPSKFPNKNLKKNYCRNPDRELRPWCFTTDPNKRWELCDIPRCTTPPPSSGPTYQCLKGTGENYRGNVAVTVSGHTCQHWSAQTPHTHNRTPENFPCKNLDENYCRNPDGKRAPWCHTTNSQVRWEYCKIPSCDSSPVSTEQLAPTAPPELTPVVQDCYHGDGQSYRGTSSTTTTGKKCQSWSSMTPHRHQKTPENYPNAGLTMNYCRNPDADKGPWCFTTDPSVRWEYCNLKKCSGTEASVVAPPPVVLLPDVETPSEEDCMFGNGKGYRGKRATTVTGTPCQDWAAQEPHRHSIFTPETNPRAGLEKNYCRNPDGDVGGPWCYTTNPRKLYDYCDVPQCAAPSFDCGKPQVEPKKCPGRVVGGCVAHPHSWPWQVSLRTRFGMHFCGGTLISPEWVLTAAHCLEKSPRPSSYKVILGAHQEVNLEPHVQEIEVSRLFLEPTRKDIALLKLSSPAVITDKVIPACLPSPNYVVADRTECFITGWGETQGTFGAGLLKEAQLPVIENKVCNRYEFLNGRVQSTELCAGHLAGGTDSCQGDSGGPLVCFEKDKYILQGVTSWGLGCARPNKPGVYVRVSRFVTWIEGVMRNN
UniProt P07332, sequence (whole entry, looked up): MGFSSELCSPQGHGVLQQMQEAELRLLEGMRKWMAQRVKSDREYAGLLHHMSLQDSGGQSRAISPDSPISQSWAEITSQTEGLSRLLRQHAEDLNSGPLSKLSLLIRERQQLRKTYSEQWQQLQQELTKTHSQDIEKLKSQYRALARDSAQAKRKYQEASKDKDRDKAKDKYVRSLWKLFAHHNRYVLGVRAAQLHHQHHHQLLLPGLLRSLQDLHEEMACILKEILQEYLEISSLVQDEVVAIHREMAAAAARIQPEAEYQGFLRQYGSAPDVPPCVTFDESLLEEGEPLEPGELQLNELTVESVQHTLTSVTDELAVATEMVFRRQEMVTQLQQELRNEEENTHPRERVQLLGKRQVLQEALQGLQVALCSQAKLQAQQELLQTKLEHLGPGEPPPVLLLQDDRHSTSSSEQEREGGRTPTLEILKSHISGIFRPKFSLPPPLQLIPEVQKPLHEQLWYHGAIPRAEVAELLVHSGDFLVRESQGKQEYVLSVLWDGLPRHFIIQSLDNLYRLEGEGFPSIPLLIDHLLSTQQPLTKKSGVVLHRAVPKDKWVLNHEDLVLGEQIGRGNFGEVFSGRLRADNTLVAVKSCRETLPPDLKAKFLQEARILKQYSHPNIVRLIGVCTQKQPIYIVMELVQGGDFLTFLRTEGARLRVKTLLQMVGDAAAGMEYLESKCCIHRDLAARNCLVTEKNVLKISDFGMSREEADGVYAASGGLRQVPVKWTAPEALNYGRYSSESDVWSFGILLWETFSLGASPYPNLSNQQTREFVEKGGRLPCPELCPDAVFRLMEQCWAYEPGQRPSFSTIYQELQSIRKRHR
UniProt P00383, sequence (whole entry, looked up): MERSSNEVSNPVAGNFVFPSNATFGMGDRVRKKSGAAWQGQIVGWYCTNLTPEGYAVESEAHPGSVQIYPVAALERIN

Compound | target or system | test | system | conditions | quantity | value
Cc1ccc(NC(=O)c2ccc(C)c(C(F)(F)F)c2)cc1C#Cc1nn(C2CCC(O)CC2)c2ncnc(N)c12 (centres unmarked) | RET | inhibitor, radiometric kinase |  | with: ATP 10 µM | IC50 | 0.004 µM
CN(C)C(=O)c1ccc2nc(-c3ccc(OCCCOc4ccc(-c5nc6ccc(C(=O)N(C)C)cc6[nH]5)cc4Br)c(Br)c3)[nH]c2c1 | Dihydrofolate reductase type 2 (Escherichia coli, UniProt P00383) | enzyme activity |  | pH 7 | IC50 | > 100 µM
CCc1nc2c(C)cc(N3CCN(CC(=O)N4CC(O)C4)CC3)cn2c1N(C)c1nc(-c2ccc(F)cc2)c(C#N)s1 | SLCO1B1 | transport, inhibitor, in vitro |  |  | IC50 | 2.44 µM
Cc1ncc(C(=O)N[C@@H](CC(C)C)C(=O)N[C@@H](CC2CCCC3CCCCC32)C(=O)N[C@H](/C=C/S(C)(=O)=O)Cc2ccc(CN)cc2)s1 (some centres unmarked) | PSMB5 | competitive ABPP | Raji cell lysate |  | IC50 | > 10 µM
CC[C@H](C)[C@H](NC(=O)[C@H](CC(N)=O)NC(=O)[C@H](C)NC(=O)[C@@H](NC(=O)[C@H](CCCNC(=N)N)NC(=O)[C@@H]1CCCN1)[C@@H](C)O)C(=O)N[C@@H](CC(C)C)C(=O)N[C@@H](CCCCN)C(=O)N1CCC[C@H]1C(=O)N[C@@H](CC(C)C)C(=O)N[C@@H](CCSC)C(=O)N[C@@H](CO)C(=O)N1CCC[C@H]1C(=O)N1CCC[C@H]1C(=O)N[C@@H](CO)C(=O)N[C@@H](CCCNC(=N)N)C(=O)O | MAD2L2 (Homo sapiens, UniProt Q9UI95, R124A) | REV7 complex disruption, inhibitor, fluorescence polarization |  | with: FAM-RBM1 peptide | IC50 | 17.8 µM
CC(C)C[C@H](NC(=O)[C@H](Cc1ccccc1)N=[N+]=[N-])C(=O)N[C@@H](CC(F)(F)F)C(=O)N[C@H](/C=C/S(C)(=O)=O)Cc1ccc(CN)cc1 | PSMB5 | competitive ABPP | Raji cell lysate |  | IC50 | > 10 µM
CN1CCN(c2ccc(Nc3ncc4cc(C#N)c(=O)n(C5CCCC5)c4n3)cc2)CC1 | FES (Homo sapiens, UniProt P07332) |  |  |  | IC50 | 0.295 µM
CC(=O)C(=O)NNC(=O)[C@H](CC(C)C)NC(=O)[C@H](CC(C)C)NC(=O)OCc1ccccc1 | Proteasome component C5/PSMB5 | β5 chymotrypsin-like activity, inhibitor |  | with: Suc-LLVY-AMC 100 µM | IC50 | 2.3 ± 1.5 µM
c1cc(-c2ccc3ncc(OCC4CCNCC4)nc3c2)cc(N2CCCCC2)c1 | Protein AF-9 with DOT1L | DOT1L binding, AlphaLISA |  |  | IC50 | 6 µM
CCOC(=O)/C=C/C(=O)N(CC(C)C)NC(=O)[C@H](Cc1ccccc1)NC(=O)[C@H](CC(C)C)NC(=O)[C@H](CCc1ccccc1)NC(=O)OCc1ccccc1 | Proteasome component C5/PSMB5 | chymotrypsin-like activity, inhibitor | human 20S proteasome | with: Suc-LLVY-AMC 100 µM | IC50 | 8.7 ± 2 µM
Cc1cccc(-c2nc(-c3ccc(C(N)=O)cc3)[nH]c2-c2ccncc2)c1 | CSNK1D | inhibitor |  |  | IC50 | 0.787 ± 0.098 µM
CCn1c(-c2nc3cc(C(=O)N4CCC[C@@H](N)C4)cc(OC)c3n2C)cc2cccnc21 | SLCO1B1 | transport, inhibitor, imaging |  |  | IC50 | > 25.1 µM
O=C(/C=C/c1ccc(CN(CCO)CCc2c[nH]c3ccccc23)cc1)NO | HBL-1 |  |  | 0.1 µM, 120 h | viability | 17.3%
COc1ccc(-c2csc(NN=Cc3ccc(N4CC(C)CC(C)C4)cc3)n2)cc1 (centres unmarked) | alpha-glucosidase | enzyme activity, inhibitor |  | with: p-nitrophenyl-alpha-D-glucopyranoside | IC50 | 30.2 µM
COc1ccc(NC(=O)Nc2ccccc2-c2nc(-c3ccoc3)n[nH]2)cc1 | RET | kinase activity, inhibitor |  | replicate one, with: 1 µM ATP, poly(Glu,Tyr) | IC50 | 19.9 µM
O=C(NC1CCNCC1)c1ccc2nc(-c3ccc(N4CCCCC4)cc3)c(-c3ccc(N4CCCCC4)cc3)nc2c1 | Protein AF-9 with DOT1L | DOT1L binding, AlphaLISA |  |  | IC50 | 2.5 µM
Cc1ccc(C(=O)Nc2ccc(S(=O)(=O)O)c3cc(S(=O)(=O)O)cc(S(=O)(=O)O)c23)cc1NC(=O)c1cccc(NC(=O)Nc2cccc(C(=O)Nc3cc(C(=O)Nc4ccc(S(=O)(=O)O)c5cc(S(=O)(=O)O)cc(S(=O)(=O)O)c45)ccc3C)c2)c1 | mRNA 5′-triphosphatase (Plasmodium falciparum, UniProt C0H484) | enzyme activity, inhibitor |  |  | IC50 | 0.5 µM
CC1=NN(c2ccc(C(=O)O)cc2)C(=O)/C1=C\c1ccc(-c2cc(C)c(C)cc2[N+](=O)[O-])o1 | HBL-1 |  |  | 0.5 µM, 120 h | viability | 122%
Fc1ccc(-c2nc(-c3ccccc3)[nH]c2-c2ccncc2)cc1 | CSNK1D | inhibitor |  |  | IC50 | 0.284 ± 0.059 µM
COCc1nn(Cc2ccc(Cn3ccccc3=O)cc2)cc1C(=O)NCc1cccc(OC)c1F | Plasminogen (PLG, Homo sapiens, UniProt P00747) |  |  |  | IC50 | > 40 µM

Excerpt of the above:
Compound | target or system | test | system | conditions | quantity | value
CC(C)C[C@H](NC(=O)[C@H](Cc1ccccc1)N=[N+]=[N-])C(=O)N[C@@H](CC(F)(F)F)C(=O)N[C@H](/C=C/S(C)(=O)=O)Cc1ccc(CN)cc1 | PSMB5 | competitive ABPP | Raji cell lysate |  | IC50 | > 10 µM
